# Results gathered from unrelated publications.
# Each numbered part is a random draw from the data of one study; scales do not carry over between parts.

# Sample 1
# Target: Sal-like protein 4, full length isoform A (SALL4, Homo sapiens, UniProt Q9UJQ4, residues 1-1053)
# UniProt Q9UJQ4, sequence (whole entry, looked up): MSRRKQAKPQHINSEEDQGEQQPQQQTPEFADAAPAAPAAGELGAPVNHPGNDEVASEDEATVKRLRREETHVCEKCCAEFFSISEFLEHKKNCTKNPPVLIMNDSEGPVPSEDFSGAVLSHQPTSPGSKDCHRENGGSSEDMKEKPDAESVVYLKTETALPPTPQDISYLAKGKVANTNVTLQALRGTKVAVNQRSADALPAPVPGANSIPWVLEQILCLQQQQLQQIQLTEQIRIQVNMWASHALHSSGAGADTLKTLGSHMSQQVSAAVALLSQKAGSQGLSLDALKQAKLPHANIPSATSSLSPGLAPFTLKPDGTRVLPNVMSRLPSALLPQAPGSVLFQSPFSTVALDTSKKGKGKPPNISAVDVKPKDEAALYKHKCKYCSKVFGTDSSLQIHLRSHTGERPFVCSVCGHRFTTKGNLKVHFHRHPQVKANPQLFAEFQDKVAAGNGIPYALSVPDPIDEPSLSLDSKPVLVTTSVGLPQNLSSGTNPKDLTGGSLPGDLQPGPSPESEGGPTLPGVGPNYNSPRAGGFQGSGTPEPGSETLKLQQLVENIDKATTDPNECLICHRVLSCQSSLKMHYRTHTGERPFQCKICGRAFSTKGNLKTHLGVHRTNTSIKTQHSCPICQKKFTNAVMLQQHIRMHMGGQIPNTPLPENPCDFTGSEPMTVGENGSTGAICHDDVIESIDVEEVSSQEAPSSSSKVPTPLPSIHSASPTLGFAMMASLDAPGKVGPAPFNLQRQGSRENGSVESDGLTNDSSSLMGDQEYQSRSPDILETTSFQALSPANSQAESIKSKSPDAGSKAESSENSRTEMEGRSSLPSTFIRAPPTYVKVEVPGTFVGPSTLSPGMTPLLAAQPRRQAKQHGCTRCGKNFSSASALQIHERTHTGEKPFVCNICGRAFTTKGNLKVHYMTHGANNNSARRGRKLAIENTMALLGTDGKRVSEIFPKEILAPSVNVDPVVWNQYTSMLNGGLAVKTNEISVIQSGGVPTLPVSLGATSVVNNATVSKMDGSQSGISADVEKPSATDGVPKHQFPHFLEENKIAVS
# Technique: universal PBM
# Molecule type: double-stranded DNA, one strand shown
# Sample: in vitro
# Tested at: 600 nM
# Setting: 8-mer, flanks averaged, mean of replicates
# Direction: higher = stronger binding
Strand,E-score
CGTTGCAA,-0.134
ACGCTTTG,-0.0512
AGTTAAAG,0.0512
AGCAGTCA,-0.161
ACAACTAT,0.203
CAACGCGC,-0.132
AATGATTA,0.36
CAACTCTG,-0.0963
CATTAGAC,0.00656
TGCTCAAA,0.0526
GACAGCAC,-0.136
CGGGGCAG,-0.35
GAAGTCGC,-0.229
AGCGGCCT,-0.402
ACTAAGCG,-0.161
ACGTAATG,0.243
CCTTCGAC,-0.185
ACCGAATA,0.189
AGACTTTC,0.0833
ATGTTGTC,0.0949
GATTTTAA,0.235
CCACCTGA,-0.0377
CCCCGCAA,-0.0811
AGGAAACC,-0.197
CATGTACC,-0.197

# Sample 2
# Target: RING finger protein unkempt homolog, zinc fingers 1-6, GST-SBP tag (UNK, Homo sapiens, UniProt Q9C0B0, residues 30-357)
# Technique: RNA Bind-n-Seq
# Molecule type: RNA
# Sample: in vitro
# Tested at: not given
# Setting: RNA with constant flanks, human-mouse chimeric sites, ends assumed
# Relative to: input RNA pool
# Direction: higher = stronger binding
# All sequences stand within: GGGAGUUCUACAGUCCGACGAUC … CAACAGAGGAUUGAGCAUCA
# Residues (chain): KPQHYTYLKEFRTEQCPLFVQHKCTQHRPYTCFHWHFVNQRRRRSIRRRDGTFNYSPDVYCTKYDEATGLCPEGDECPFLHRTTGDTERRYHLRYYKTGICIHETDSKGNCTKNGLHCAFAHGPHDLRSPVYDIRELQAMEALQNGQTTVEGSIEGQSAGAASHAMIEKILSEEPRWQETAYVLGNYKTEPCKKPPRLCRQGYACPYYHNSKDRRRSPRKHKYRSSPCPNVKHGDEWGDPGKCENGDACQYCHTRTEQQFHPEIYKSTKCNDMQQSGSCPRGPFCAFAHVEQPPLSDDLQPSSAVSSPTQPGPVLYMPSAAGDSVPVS
Strand,bound/input enrichment [ratio]
UGGCGCCUGCGCUCCCCACUCGUGUUUUUAAGUGUAUUUUUAUAAGAUACAUGUAUUUGUAAUAGAUUUUUUGAUUAAUAAUGCUGAAAUGCUACUGGAGAUUAUGAAAAAUGUUUCAAU,168
CGGAGCCCUCCUCUCCCACAGGCCCAAGAUGUGACCCACCAGUGCCUUCUGUCUGCUUGUCAGCUCUGUCAAUCACGCCUGUCCUCUCACGCCCACACCAAGUGCCCAAAGUGGGGAGGG,0.438
UAAGUUAUUUUGUACAGCUUUGUAAAUUCUUAACAUUUUUAUAUUGCCAUGUUUAUUUUUUUUAGAUAAUUUGGUUCAUACAUGGCCUAGCUAAGGUAAUGAACAUCUUUUUCAGUAAUU,8.86
GUGUCCUGCUUUCAACUAUCACUGAGGAGGCAUCUCUACUGUUCUGUGAGCAUCAGGACUGUAGCGCUUGCCACCACCAUGAGAGUUCAGAAGCAGCCUUUCUGUGGAGGGUGGGAAUGA,0.0755
UAAAUUAGCCAGCACCAUUUCUGUUUCUCCCUGGGCUGCGGAAAGCCAGAAGAUUUUAUCUAGCUUAUACAAGGCUGCUGGUGUUCCCUCUUUUUUUCCACGAGGGUGUUUUUGGCUGCA,0.864
CAGUCCCCGUGUCCCAGUGCAGGACGAUGUGAACAAAAACUCAAAGCGGCCCUUUCUUUGUAGUUCUUGAUUCUCGAAAUGUGCUAUUGUUUUUAAACUUUUUUUUUUUUUUUUUAAAGA,0.684
CAGGGCAUCAUCUCUCGUGCUGUUAGACACCUGUUCAAGAGUAUUGAAGAAAAAAAACACAUAGCAAUUAAAAACGGGCUGCCCCCUCCUGAAUUCAAAGUGAAUGCCCAGUUCCUAGAG,4.17
CUGUGACCACAAGAUCCUACCUGAGUGGCAGCUGAAGUUGACUCCCUCUCCUUGCCUGAACCCCCCCCCACUGCCCCCCCAUCCCCCGCAGAAUUCCGAGAUGUUGCCAGCAGACAGUUC,0.661
GCUGAAAAUGAAGAAGAGGCAGCUGAUGUCUGGUACAACCUGGGGCACAUAGCUGUGGGAAUAGGAGAUACAAACUUGGCCCACCAAUGCUUCAGGCUGGCCCUGGUCCACAACAACCAC,0.287
AAAGCCCAAGUAUUUUGAAAAAACUCGAACAGAUUUGACAAGGGUAGCCAGCUUGGAGUCUAGCAACUUGCCAAUGUGUUUACCAAUUUUGGGGGCUGUUUUUCUUUCCCUUCCUUAAAU,0.339
UUUCUACUGCAGCAAACCAUGCUACGAAUUAAGGAUCCUAAGAAGUCCCUGGAUUUUUAUACGAGGGUUCUUGGAAUGACCCUCCUGCAGAAGCUUGACUUCCCUGCUAUGAAGUUCUCG,0.0857

# Sample 3
# Target: RNA binding protein fox-1 homolog 2, RRM domain, GST-SBP tag (RBFOX2, Homo sapiens, UniProt O43251-10, residues 100-194)
# Technique: RNA Bind-n-Seq
# Molecule type: RNA
# Sample: in vitro
# Tested at: 365 nM
# Setting: natural RNA segment, single round, ends assumed
# Relative to: no-protein control
# Direction: higher = stronger binding
# All sequences stand within: GGGAGUUCUACAGUCCGACGAUC … UGGAAUUCUCGGGUGCCAA
# Residues (chain): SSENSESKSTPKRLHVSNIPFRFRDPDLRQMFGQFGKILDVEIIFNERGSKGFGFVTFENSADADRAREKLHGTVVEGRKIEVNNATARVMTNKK
Strand,RBNS enrichment (R)
AAAAAAAACUACAUGCAAAACUGUAGGUAAUGAAAAUGAUGUAUUUUUUUCAUCUUUUUUUGUUAACUAAUUUGCAAUAAAAAUGAUACUGAUGGUUGUCCACAUUUUGC,0.45
AUAUAUAUUUAAUUUUCUUAAAUUCCCGUUAAACUCUAUUUUAUGGUUUUGAUUUCAGAUUGCAAACAUGUAAAACCUGCAUAGCAGCGAGUUCUCGGUUUUGCCGGUUU,0.616
UUUGUGAGUAGUUUACUAAGGAACUGAAAAUGGUCCCCUUUGUCCAAGCUGAGCUGCUAGGGAAUCAAGGUGAACUAGACCCGUCCUCAGGCCUCUGGCACCUGUUUCUA,0.287
AAAAAUCUAUGAAGUUAAAAGAUCGUAGAAGCCAAAUGAAAUGUACAUAUCUACUGACUGAUGACAAGGGAAUUUCAUUAGGAAGAAGGUAAAGAAACAUCGUUGAGUAG,0.428
UACCAUUAACUAUGAGAUUAACAAAAACUUUUACCUUUGUGCAGAAGGUUAAAAAAAAAAAAACAUGGUUAAGGAAAAGGAGACAUGUUACCUCUUCAUACACUCCUAUA,0.463
UCUGACUGUAGUAAAAGCUGCUUCCUGUCCUGUUCAAGUUGCUGCAGCAGGGGUCAUGCCAAGUCAGGCCUGUAGCUCCUAAUAGGGGCCUAUUUCUACUUUUAUUUUGU,0.404
CUGCCAUUCACUCACUGCAGCAUAUUCAAGAAUAAAGCAAUAUCGUUUACUACAUUUUUUAUUGAAGGUCAGCCAUGCUUUCUGUAUUAUAUUGCAUAUGAAAUUGUUUA,0.365
UUUUCAUCAGGAAAGGAGCACUGUGGGAAGAGCCCAGUAUUCACAUUUUUUCCCCAUUUUUCAGAAGCGACAUUUCAUAUAUAGGUGCCAAAAGUGAAUCGGGGUGCGGA,0.159
UGAUCACUUUUGAACCUGCCCCUUAACCUUGACGAGGAUACAAAAGUGAAAGCAUCAUCCCCCAAAGGAUCACUGCACAGUCCUACUACAGUAUUUUUAAGUAGCCCUCU,0.491
UUUAAACAAUUUUUAAGACUUGUAAUUACCCUGAAAAUAAGGUUUAUAAUGCAAAGACCAGCUCCUUUGCGGUGGCAGUGCUCUAGGGCUGCCAUUACACGGUCUUGUGA,0.28
GUUAUUGGGACUUGUAUUAUAGGUGAUGGUAUGUGAGAAUCCAGUUGGGACUCGCUGUUGCCAUCCUCUUUGUUGUAUCUGGUUUUCAUCACUAGACUCAGCAACCCUUC,0.323
GCCCUGGAGGCUCCCAUGUGCUUGAGGAAGGCUGGUGAGCCCGGCUCAGGACCCUCUUCCCUCAGGGGCUGCACCCUCCUCUCACUCCCUUCCAUGCCGGAACCCAGGCC,0.49

# Sample 4
# Target: Interferon regulatory factor 5, full length, phosphomimetic (IRF5, Homo sapiens, UniProt Q13568-2, residues 1-514, S451D/S453D/S456D/S462D)
# Technique: protein-binding microarray
# Molecule type: double-stranded DNA, one strand shown
# Sample: in vitro
# Tested at: 940 nM top
# Setting: 60-bp whole probe
# With: salmon DNA 0.4 mg/ml
# Relative to: random background probes
# Direction: higher = stronger binding
# All sequences stand within: GCCTAGCAC … GTCTTGATTCGCTTGACGCTGCTG
Strand,fitted relative affinity [z-score]
TCATGTATATATGTGTAACTGTGCTAG,-0.188
TTAGATTTCAGTTCCGATTTGTGCTAG,2.18
CTTTACATGAGTTTAGAGCCGTGCTAG,-0.464
TTATGTTTCGACTTTCGGTTAGTGCTA,6.09
GACGGTATCGGGTATCGGAACGTGCTA,5.53
CACGGACTGCTTCTCCTGACGTGCTAG,-0.182
TGGCCTATTTATATGAGATGGTGCTAG,-0.179
GATGGTATCGGGTTTCGGGACGTGCTA,6.31
TTAGAACGGAGTATCGATTAGTGCTAG,3.41
GACGGTTTCGACTATCGCGACGTGCTA,8.64
GACGGTATCCTTTTGCTGACGTGCTAG,0.564
TTAGAACTGAAACTGGATTAGTGCTAG,0.831
GACGAACTGAGTTTTGAGACGTGCTAG,-0.11
TTAGGTATCGGGTTACGGTTAGTGCTA,6.83
CTTCATGTTTTTTTCTACTTGTGCTAG,1.54
GACGGTTTCGGACTGGGGCCGTGCTAG,5.95
CTAGAACTGGGGACTGGATTAGTGCTA,-0.089
TCAGGTATAAACTTGGGACTGTGCTAG,-0.413

# Some of these lines once more (sample 4):
Strand,fitted relative affinity [z-score]
CTTTACATGAGTTTAGAGCCGTGCTAG,-0.464
TTATGTTTCGACTTTCGGTTAGTGCTA,6.09
GACGGTATCGGGTATCGGAACGTGCTA,5.53
CACGGACTGCTTCTCCTGACGTGCTAG,-0.182
TGGCCTATTTATATGAGATGGTGCTAG,-0.179
